# Measured values of several laboratories.
# Protocols differ between the studies behind these lines. “And” joins repeats or separate records; there may be more than shown. ± gives the spread as reported.
# Chain of UniProt Q8IWT6 (whole entry, unmodified, looked up): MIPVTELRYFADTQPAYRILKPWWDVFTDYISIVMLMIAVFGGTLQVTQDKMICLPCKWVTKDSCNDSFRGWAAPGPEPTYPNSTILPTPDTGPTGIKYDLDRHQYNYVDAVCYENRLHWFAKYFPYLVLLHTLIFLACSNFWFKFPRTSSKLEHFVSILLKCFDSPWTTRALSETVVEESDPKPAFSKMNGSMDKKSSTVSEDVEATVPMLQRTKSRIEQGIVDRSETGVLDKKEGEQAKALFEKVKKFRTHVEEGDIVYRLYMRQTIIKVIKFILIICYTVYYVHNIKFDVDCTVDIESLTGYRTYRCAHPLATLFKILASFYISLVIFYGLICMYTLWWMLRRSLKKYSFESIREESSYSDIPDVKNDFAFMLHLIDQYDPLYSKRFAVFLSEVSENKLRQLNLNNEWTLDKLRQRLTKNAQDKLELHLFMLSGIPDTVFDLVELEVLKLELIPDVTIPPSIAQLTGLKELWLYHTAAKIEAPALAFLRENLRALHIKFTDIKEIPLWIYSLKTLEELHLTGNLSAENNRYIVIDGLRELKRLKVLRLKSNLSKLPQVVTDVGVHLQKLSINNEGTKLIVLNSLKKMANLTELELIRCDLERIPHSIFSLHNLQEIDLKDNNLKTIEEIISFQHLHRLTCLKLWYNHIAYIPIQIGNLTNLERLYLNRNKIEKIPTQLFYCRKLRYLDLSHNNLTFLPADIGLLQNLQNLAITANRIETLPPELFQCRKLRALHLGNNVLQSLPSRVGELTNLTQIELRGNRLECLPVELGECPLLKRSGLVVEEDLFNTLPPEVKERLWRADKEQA
# Chain of UniProt P05067 (whole entry, looked up): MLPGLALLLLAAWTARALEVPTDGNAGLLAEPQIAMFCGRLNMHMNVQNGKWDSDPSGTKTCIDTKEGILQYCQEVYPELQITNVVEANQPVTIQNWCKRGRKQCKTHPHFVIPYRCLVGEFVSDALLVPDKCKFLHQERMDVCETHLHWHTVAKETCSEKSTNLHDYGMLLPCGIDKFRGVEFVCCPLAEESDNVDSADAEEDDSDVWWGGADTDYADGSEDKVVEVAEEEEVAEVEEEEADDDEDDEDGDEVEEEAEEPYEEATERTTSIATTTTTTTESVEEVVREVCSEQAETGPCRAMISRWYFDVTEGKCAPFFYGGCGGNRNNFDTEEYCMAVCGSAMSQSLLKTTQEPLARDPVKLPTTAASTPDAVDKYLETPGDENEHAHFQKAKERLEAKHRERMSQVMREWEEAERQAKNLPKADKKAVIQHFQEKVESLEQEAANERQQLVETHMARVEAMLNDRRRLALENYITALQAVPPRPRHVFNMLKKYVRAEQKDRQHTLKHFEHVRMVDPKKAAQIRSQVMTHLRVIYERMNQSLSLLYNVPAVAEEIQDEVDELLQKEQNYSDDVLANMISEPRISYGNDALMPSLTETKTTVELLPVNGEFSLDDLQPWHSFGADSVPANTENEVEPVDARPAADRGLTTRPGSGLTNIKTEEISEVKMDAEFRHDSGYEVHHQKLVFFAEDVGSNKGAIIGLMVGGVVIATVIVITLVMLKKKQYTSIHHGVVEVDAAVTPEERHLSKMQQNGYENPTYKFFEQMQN
# Chain of UniProt P04629 (whole entry, unmodified, looked up): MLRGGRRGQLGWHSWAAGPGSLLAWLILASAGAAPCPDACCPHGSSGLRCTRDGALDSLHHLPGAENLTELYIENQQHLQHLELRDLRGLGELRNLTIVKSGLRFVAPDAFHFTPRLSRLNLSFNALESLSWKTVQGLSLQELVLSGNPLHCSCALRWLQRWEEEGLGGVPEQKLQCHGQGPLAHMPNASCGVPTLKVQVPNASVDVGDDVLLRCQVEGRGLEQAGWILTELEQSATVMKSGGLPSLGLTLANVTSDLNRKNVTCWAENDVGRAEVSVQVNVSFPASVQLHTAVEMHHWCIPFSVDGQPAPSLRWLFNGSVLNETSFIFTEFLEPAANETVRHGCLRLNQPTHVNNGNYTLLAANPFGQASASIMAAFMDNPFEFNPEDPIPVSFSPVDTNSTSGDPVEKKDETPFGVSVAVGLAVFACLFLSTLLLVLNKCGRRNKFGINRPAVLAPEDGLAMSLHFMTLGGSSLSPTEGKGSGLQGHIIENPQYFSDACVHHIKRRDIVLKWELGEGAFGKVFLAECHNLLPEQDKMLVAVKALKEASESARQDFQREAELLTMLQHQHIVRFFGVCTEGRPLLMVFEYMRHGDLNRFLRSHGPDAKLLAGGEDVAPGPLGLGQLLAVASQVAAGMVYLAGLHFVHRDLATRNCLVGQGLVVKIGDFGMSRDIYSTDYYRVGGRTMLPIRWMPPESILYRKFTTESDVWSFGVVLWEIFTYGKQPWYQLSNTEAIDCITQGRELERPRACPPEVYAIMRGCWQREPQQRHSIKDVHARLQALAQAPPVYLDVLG
# Chain of UniProt Q15831 (whole entry, looked up): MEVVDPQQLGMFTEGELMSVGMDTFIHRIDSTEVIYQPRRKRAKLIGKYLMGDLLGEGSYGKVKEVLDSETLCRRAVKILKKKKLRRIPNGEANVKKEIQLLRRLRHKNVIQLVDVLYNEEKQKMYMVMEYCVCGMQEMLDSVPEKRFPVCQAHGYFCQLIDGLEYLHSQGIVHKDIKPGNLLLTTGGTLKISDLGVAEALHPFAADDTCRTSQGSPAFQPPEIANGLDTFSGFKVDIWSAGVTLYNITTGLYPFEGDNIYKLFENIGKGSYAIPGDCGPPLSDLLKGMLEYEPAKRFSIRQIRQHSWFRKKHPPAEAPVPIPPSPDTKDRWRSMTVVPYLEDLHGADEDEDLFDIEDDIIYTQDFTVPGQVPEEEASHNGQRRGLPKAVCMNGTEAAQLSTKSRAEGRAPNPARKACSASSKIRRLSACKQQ
# Chain of UniProt Q03330 (whole entry, looked up): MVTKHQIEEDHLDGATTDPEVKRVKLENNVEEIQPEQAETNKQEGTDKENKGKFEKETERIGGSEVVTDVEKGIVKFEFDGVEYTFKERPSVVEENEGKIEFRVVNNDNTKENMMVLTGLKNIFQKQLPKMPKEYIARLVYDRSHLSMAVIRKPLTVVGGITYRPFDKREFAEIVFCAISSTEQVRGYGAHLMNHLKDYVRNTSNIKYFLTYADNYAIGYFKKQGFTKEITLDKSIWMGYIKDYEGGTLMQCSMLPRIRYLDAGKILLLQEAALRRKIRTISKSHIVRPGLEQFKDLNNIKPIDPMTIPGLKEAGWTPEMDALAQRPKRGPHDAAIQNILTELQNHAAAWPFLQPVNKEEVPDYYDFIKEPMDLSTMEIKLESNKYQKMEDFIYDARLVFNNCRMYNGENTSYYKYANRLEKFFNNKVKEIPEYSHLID
# Chain of UniProt Q8N884 (whole entry, looked up): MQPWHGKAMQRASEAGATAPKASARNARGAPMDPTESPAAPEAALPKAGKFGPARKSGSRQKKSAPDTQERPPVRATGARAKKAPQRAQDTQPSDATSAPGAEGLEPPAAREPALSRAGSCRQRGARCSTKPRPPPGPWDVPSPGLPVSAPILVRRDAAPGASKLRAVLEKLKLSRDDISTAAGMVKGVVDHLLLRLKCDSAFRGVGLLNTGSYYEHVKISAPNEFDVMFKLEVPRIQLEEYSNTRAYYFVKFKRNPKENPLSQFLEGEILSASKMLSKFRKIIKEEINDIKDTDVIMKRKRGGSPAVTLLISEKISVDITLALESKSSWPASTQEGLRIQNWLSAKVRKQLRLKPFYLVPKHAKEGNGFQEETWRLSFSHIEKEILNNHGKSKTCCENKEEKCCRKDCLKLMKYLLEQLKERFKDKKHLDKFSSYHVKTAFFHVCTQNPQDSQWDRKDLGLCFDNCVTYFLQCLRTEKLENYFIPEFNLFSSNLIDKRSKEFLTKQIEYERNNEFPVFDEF
# Chain of UniProt O75751 (whole entry, looked up): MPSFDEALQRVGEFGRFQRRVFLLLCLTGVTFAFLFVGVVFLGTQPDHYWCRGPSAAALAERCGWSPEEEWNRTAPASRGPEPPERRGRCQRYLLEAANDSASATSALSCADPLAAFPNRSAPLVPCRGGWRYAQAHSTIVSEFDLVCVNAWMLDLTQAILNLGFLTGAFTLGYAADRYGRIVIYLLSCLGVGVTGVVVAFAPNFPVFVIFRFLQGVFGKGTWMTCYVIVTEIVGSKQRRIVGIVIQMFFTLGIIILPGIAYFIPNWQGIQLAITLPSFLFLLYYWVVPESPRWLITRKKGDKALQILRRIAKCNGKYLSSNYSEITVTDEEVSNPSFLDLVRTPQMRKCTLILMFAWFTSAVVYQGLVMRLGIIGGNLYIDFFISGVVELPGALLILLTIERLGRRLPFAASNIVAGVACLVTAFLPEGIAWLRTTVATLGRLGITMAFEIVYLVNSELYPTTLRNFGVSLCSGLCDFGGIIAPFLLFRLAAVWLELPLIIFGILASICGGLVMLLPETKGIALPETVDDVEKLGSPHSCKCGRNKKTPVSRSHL
# Chain of UniProt P32745 (whole entry, looked up): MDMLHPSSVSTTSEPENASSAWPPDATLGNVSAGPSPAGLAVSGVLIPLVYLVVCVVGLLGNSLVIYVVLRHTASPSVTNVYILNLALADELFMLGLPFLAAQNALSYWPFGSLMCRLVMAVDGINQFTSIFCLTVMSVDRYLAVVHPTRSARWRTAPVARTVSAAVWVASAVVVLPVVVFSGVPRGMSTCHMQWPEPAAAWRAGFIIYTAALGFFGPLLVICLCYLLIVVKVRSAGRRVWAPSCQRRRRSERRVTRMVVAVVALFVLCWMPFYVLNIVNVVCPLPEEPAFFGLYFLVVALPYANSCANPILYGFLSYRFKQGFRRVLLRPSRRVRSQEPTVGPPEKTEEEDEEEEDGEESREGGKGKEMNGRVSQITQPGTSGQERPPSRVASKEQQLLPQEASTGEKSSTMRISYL
SMILES,target or system,assay,test system,setting,endpoint,value
COc1cc(C(=O)NS(=O)(=O)c2ccccc2C)ccc1Cc1cn(C)c2ccc(NC(=O)OC3CCCC3)cc12,"Volume-regulated anion channel subunit LRRC8C, part LRRC8A IL1 chimera (LRRC8C, Homo sapiens, UniProt Q8TDW0, I133F)","ion current, inhibitor, whole-cell patch clamp",HCT LRRC8-/- cells,"10 µM, +100 mV",inhibition,54.7% and 95.3% and 62.8% and 73.7% and 59.5%
O=C(COCC(F)F)Nc1ccc(C2CCCCC2)cc1,,liver microsome stability,mouse liver microsomes,1 µM,hepatic clearance,83 mL/min/kg
C#Cc1cc(-c2cc(Nc3nc(N[C@@H](C)c4ccc(F)cn4)ncc3Cl)n[nH]2)ccc1C=O,"NTRK1 (Homo sapiens, UniProt P04629, G595R)","enzyme activity, inhibitor",,0.2 µM,inhibition,97.5%
CN1CCN(c2cc(-c3ccncc3)c(-c3ccc4ccccc4c3)nn2)CC1,"SSTR3 (Homo sapiens, UniProt P32745)","antagonist, FLIPR",,10 µM,inhibition,20.8%
O=C(NCC1CCOCC1)c1ccc([C@H]2[C@@H](F)[C@@H](F)C[C@@H](F)[C@H]2F)cc1,,liver microsome stability,human liver microsomes,"1 µM, without NADPH",hepatic clearance,3.9 mL/min/kg
OO,"Histone acetyltransferase GCN5, with Ada2 and Ada3 (Saccharomyces cerevisiae S288c, UniProt Q03330)","enzyme activity, inhibitor",,"250 µM, Gcn5-Ada2-Ada3 complex, 1 mM DTT, added: [3H]acetyl-CoA",inhibition,12 ± 10%
Cc1nn(-c2nc3ccccc3[nH]2)c(O)c1C(c1ccccc1C(=O)O)c1c(C)nn(-c2nc3ccccc3[nH]2)c1O,"CGAS (Homo sapiens, UniProt Q8N884)","enzyme activity, inhibitor, pyrophosphatase-coupled",,"50 µM, 1.5 h, added: HT-DNA",inhibition,94.4%
C[C@@H]1CCO[C@H]2Cn3cc(C(=O)NCc4ccc(F)cc4F)c(=O)c(O)c3C(=O)N12,"SLC22A3 (Homo sapiens, UniProt O75751)",transport,"MDCK-II, transfected","0.1 µM, added: MPP+ 2 µM",inhibition,4.14%
CNc1ccc(-c2nc3ccc(O)cc3s2)cc1,"Amyloid-beta precursor protein, amyloid-beta (APP, Homo sapiens, UniProt P05067)","binding, competition binding",amyloid-beta aggregates,"250 nM, added: tritiated amyloid ligand",inhibition,94.6% and 91.1%
O=C(Nc1cccc2c(=O)cc(-c3nnn[nH]3)oc12)c1ccc(OCCCCc2ccccc2)cc1,"LRRC8A/LRRC8C (Homo sapiens, UniProt Q8IWT6+Q8TDW0, Y124F/Y126F)","ion current, whole-cell patch clamp",HCT LRRC8-/- cells,"1 µM, -100 mV, Y124F/Y126F heteromers",inhibition,7.1% and -10.2% and -12.7% and -7.66% and 39.3% and -11.1%
CC[C@@H]1[C@H](F)C(=O)N[C@@H]1COc1nccc2cc(C(N)=O)c(OC)cc12,"STK11 (Homo sapiens, UniProt Q15831)","ATP-site probe binding, ActivX profiling",THP-1 cell lysate,"0.01 mM, Lys2 site",inhibition,-0.5%

# Repeated from above:
SMILES,target or system,assay,test system,setting,endpoint,value
O=C(NCC1CCOCC1)c1ccc([C@H]2[C@@H](F)[C@@H](F)C[C@@H](F)[C@H]2F)cc1,,liver microsome stability,human liver microsomes,"1 µM, without NADPH",hepatic clearance,3.9 mL/min/kg
